Literature values, collected from citations in different studies.
Lines come from different studies, so protocols differ.
B1: CCL1; sequence looked up; chain KSMQVPFSRCCFSFAEQEIPLRAILCYRNTSSICSNEGLIFKLKRGKEACALDTVGWVQRHRKMLRHCPSKRK

Liraglutide
half-life (circulation): 15 h

AMTLRKRKFAWYVLSSSLKWLIKKAKKIGVQVCGFE
MIC (Pseudomonas aeruginosa; peptide, ATCC 15692): 4 µM

insulin icodec
dose-normalised Cmax at steady state (White patients with type 1 diabetes, serum; geometric mean): 99.3 (nmol/L)/(U/kg)

amivantamab
patients with rash (clinical trial; human, NSCLC patients; dose not given): 86%

ranibizumab
half-life (rabbit; dose not given): 67.2 h

ifinatamab deruxtecan
ILD or pneumonitis, all grades (patients with advanced solid tumours; dose not given): 2.9%

albiglutide
t1/2 (human; once weekly dosing): 144 to 192 h

KWIKIWFIWRRIKWRK
MIC (Pseudomonas aeruginosa; peptide): 46.9 µg/mL

B1 (CCL1)
EC50 (CCR8 S262A mutant; IP accumulation, agonist): 5.2 nM

dulaglutide
clearance (human; 0.75 mg once weekly, steady state): 0.073 L/h

pegcetacoplan
Cmax (human; 270 mg/day for 28 days (3.9 mg/kg), arithmetic mean): 670 µg/mL

Repeated from above:
ifinatamab deruxtecan
ILD or pneumonitis, all grades (patients with advanced solid tumours; dose not given): 2.9%
